Measured values pooled from the literature.
Protocols differ between the studies behind these lines.

Compound | organism | test | system | conditions | MIC
Cc1ccc(CCC(=O)Nc2nnc(S(N)(=O)=O)s2)cc1 | Phocaeicola dorei | – | HM-717 | – | > 784 µM
N=C(N)c1ccc(OCc2cc(COc3ccc(C(=N)N)cc3)cc(-c3ccccc3)c2)cc1 | Escherichia coli | – | 552100 | in combination, checkerboard, together with: rifampicin | 12.5 µg/mL
N#CC(=C1C=CC(=NOC(=O)OCc2ccccc2)C=C1)c1ccccc1 | Pichia norvegensis | broth dilution | ATCC 96139 | 48 h, 37 °C | 128 µg/mL
CC(C)(O/N=C(\C(=O)N[C@@H]1C(=O)N2C(C(=O)[O-])=C(C[n+]3ccccc3)CS[C@H]12)c1csc(N)n1)C(=O)O | Helicobacter pylori | broth microdilution | SS1 | 48 h, microaerobic | > 128 µg/mL
CC(C)(C)Oc1ccc(CC2NC(=O)C(C(=O)NC(C(=O)NC3C(=O)N4C3SC(C)(C)C4C(=O)O)c3ccccc3)=C2O)cc1 (stereo not shown) | Escherichia coli | broth microdilution | BW25113 wild type | 18 h | 12.5 µg/mL
CC1(C)S[C@@H]2[C@H](NC(=O)[C@H](N)c3ccccc3)C(=O)N2[C@H]1C(=O)O | Stenotrophomonas maltophilia | broth microdilution | clinical isolate RKI-No 136/09 | – | 8 µg/mL
CC(C)(C)OCC1NC(=O)C(C(=O)NC(C(=O)NC2C(=O)N3C2SC(C)(C)C3C(=O)O)c2ccccc2)=C1O (stereo not shown) | Escherichia coli | broth microdilution | ATCC 25922 wild type | no clavulanic acid | 12.5 µg/mL
CCCCCCCCCC(=O)N[C@@H](Cc1c[nH]c2ccccc12)C(=O)N[C@H](CC(N)=O)C(=O)N[C@@H](CC(=O)O)C(=O)N[C@@H]1C(=O)NCC(=O)N[C@@H](CCCN)C(=O)N[C@@H](CC(=O)O)C(=O)N[C@H](C)C(=O)N[C@@H](CC(=O)O)C(=O)NCC(=O)N[C@H](CO)C(=O)N[C@@H]([C@H](C)CC(=O)O)C(=O)N[C@@H](CC(=O)c2ccccc2N)C(=O)O[C@@H]1C | Staphylococcus aureus | – | SH1000 | together with: cardiolipin, molar ratio 0.5 | 1 µg/mL
CC(C)C[C@@H]1NC(=O)[C@@H](Cc2ccccc2)NC(=O)[C@H](CCN)NC(=O)[C@@H](NC(=O)[C@H](CCN)NC(=O)[C@@H](N)[C@@H](C)O)CCNC(=O)[C@H]([C@@H](C)O)NC(=O)[C@H](CCN)NC(=O)[C@H](CCN)NC1=O | Escherichia coli | checkerboard | W3110 | concentration not given, together with: rifampicin | 0.09 µg/mL
C#CCON=C1C=CC(=C(C#N)c2ccccc2)C=C1 | Pichia norvegensis | broth dilution | ATCC 96139 | 48 h, 37 °C | 32 µg/mL
CC(=O)NC[C@H]1CN(c2ccc(N3CCOCC3)c(F)c2)C(=O)O1 | Phocaeicola dorei | – | HM-719 | – | < 2.96 µM
CNC(C)C1CCC(N)C(OC2C(N)CC(N)C(OC3OCC(C)(O)C(NC)C3O)C2O)O1 (stereo not shown) | Stenotrophomonas maltophilia | broth microdilution | clinical isolate RKI-No 729/15 | – | > 8 µg/mL
CC(=O)ON=C1C=CC(=C(C#N)c2ccccc2)C=C1 | Pichia norvegensis | broth dilution | ATCC 96139 | 48 h, 37 °C | 8 µg/mL
N=C(N)c1ccc(OCCC(CCOc2ccc(C(=N)N)cc2)c2ccccc2)cc1 (stereo not shown) | Escherichia coli | – | mcr-1 polymyxin-resistant | 20 h, compound alone | > 200 µg/mL
CN[C@H](CC(C)C)C(=O)N[C@H]1C(=O)N[C@@H](CC(N)=O)C(=O)N[C@H]2C(=O)N[C@H]3C(=O)N[C@H](C(=O)N[C@H](C(=O)O)c4cc(O)cc(O)c4-c4cc3ccc4O)[C@H](O)c3ccc(c(Cl)c3)Oc3cc2cc(c3O[C@@H]2O[C@H](CO)[C@@H](O)[C@H](O)[C@H]2O[C@H]2C[C@](C)(N)[C@H](O)[C@H](C)O2)Oc2ccc(cc2Cl)[C@H]1O | Staphylococcus aureus | – | CVCC546 | alone | 1 µg/mL
CN[C@H](CC(C)C)C(=O)N[C@H]1C(=O)N[C@@H](CC(N)=O)C(=O)N[C@H]2C(=O)N[C@H]3C(=O)N[C@H](C(=O)N[C@H](C(=O)O)c4cc(O)cc(O)c4-c4cc3ccc4O)[C@H](O)c3ccc(c(Cl)c3)Oc3cc2cc(c3O[C@@H]2O[C@H](CO)[C@@H](O)[C@H](O)[C@H]2O[C@H]2C[C@](C)(N)[C@H](O)[C@H](C)O2)Oc2ccc(cc2Cl)[C@H]1O | Staphylococcus epidermidis | – | MRSE-37, methicillin-resistant | – | 1 µg/mL

Repeated from above:
Compound | organism | test | system | conditions | MIC
CC(=O)NC[C@H]1CN(c2ccc(N3CCOCC3)c(F)c2)C(=O)O1 | Phocaeicola dorei | – | HM-719 | – | < 2.96 µM
